Measured values gathered from unrelated publications.
Compare with care: the assays were run in different laboratories. Values joined by “and” are separate records of one study, mostly repeats; a detail may differ. Numbers after ± are the reported error.
Palmitoyl-protein thioesterase 1: Palmitoyl-protein thioesterase 1 (Homo sapiens, UniProt P50897)
Chain of UniProt P50897 (whole entry, looked up): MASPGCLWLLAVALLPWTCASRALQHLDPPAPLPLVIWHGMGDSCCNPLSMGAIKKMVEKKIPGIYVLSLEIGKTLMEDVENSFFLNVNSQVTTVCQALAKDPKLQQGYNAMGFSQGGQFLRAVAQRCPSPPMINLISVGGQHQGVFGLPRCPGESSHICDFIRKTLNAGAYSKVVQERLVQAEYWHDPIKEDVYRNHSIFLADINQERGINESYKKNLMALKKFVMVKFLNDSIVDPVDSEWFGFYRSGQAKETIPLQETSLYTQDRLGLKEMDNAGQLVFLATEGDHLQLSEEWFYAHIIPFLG
HCK: Tyrosine-protein kinase HCK (HCK, Homo sapiens, UniProt P08631)
Chain of UniProt P08631 (whole entry, looked up): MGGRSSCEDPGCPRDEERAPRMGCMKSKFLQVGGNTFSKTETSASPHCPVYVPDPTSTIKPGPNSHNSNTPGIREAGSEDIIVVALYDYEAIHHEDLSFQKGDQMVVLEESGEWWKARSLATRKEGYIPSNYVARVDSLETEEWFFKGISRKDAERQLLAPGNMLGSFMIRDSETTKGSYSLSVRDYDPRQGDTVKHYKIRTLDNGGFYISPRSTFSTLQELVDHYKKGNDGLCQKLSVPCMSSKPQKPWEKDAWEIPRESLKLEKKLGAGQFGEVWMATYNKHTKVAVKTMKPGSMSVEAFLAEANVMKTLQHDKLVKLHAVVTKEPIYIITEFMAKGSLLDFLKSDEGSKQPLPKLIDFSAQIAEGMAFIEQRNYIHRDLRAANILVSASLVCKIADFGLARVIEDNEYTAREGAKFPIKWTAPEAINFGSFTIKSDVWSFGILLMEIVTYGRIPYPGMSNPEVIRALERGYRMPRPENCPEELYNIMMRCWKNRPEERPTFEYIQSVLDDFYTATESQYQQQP
Genome polyprotein NS3 helicase domain: Genome polyprotein, NS3 helicase domain (Hepatitis C virus genotype 1b, UniProt Q9WMX2)
SRC SH3-SH2-kinase domain: Proto-oncogene tyrosine-protein kinase Src, SH3-SH2-kinase domain (SRC, Gallus gallus, UniProt P00523)
ALDH1B1: Aldehyde dehydrogenase X, mitochondrial (ALDH1B1, Homo sapiens, UniProt P30837)
Chain of UniProt P00742 (whole entry, looked up): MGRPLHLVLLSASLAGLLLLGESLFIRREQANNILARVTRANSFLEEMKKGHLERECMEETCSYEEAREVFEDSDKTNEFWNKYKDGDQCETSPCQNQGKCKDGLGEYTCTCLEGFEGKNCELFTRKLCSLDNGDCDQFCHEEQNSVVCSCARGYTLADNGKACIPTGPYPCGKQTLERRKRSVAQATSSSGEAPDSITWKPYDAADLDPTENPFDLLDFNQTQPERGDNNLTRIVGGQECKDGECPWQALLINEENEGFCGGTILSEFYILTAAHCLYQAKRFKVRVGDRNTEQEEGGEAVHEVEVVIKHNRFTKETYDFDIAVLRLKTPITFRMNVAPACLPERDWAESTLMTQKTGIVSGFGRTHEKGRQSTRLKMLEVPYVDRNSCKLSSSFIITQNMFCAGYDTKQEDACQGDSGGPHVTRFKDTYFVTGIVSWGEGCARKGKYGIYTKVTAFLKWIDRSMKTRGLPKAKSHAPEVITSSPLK
Chain of UniProt P30837 (whole entry, looked up): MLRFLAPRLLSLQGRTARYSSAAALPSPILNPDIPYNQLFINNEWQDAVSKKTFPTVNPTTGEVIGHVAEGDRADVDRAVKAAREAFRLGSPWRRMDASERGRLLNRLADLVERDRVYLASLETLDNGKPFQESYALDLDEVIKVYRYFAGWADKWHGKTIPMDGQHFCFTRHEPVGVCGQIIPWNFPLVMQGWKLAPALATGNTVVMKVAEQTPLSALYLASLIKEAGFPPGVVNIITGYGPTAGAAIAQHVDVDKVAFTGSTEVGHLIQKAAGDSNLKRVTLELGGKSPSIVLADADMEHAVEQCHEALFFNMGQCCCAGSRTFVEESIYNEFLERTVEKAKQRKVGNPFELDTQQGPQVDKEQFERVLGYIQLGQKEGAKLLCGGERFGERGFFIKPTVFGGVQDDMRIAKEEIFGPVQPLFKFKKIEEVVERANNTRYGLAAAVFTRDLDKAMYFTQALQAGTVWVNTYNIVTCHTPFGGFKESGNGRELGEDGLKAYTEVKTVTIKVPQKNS
Chain of UniProt P06730 (whole entry, looked up): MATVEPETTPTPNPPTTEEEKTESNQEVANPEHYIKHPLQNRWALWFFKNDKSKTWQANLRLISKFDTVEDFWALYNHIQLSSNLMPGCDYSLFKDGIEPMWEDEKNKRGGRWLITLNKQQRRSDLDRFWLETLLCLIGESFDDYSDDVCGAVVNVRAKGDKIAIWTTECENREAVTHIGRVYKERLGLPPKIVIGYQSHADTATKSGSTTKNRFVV

Compound	target	assay	test system	setting	scale	IC50
CN1CCN(C2=Nc3ccccc3Nc3ccccc32)CC1	Palmitoyl-protein thioesterase 1	enzyme activity, inhibitor				> 100 µM
CCC(NC(=O)C(CC(C)C)NC(=O)CCc1ccc(C#N)cc1)C(=O)C(=O)NCc1cc(OC)cc(OC)c1 (centres unmarked)	Calpain-2 catalytic subunit (Capn2, Mus musculus, UniProt O08529)	enzyme activity, inhibitor	mouse pons-cerebellum membranes	together with: calcium 2 mM		0.097 µM
COC(=O)Cn1nc(-c2ccccc2)c2ccccc21	Trypanothione synthetase (Trypanosoma brucei, UniProt Q586P2)	enzyme activity, inhibitor				20 µM
OC[C@@H]1[C@@H](O)[C@H](O)[C@@H](O)CN1CCCCCOCC1CCCO1 (some centres unmarked)	Ceramide glucosyltransferase (Ugcg, Mus musculus, UniProt O88693)	enzyme activity in cells, inhibitor, fluorescence				> 50 µM
Cc1ccccc1-c1cc(N2CCOCC2)ccc1N(C)C(=O)C(C)(C)c1cc(C(F)(F)F)cc(C(F)(F)F)c1	Substance-P receptor (TACR1, Homo sapiens, UniProt P25103)	nuclear ERK activity, antagonist, FRET biosensor	HEK293T	30 to 90 min preincubation, together with: substance P 10 nM		0.513 µM
CC(=O)OCC1C=C(C2(C)CCCCC2)CCC1COC(C)=O (single isomer, unassigned; (+))	Peptidyl-prolyl cis-trans isomerase F, mitochondrial (PPIF, Homo sapiens, UniProt P30405)	enzyme activity, inhibitor				0.48 µM
NC(=O)[C@@H]1CCCNC(=O)[C@H](Cc2ccc([N+](=O)[O-])cc2)NC(=O)[C@H](Cc2ccco2)NC(=O)[C@H](CC2CC2)NC(=O)/C=C/C(=O)N1	HCK	enzyme activity, inhibitor, absorbance				> 100 µM
C=CC(=O)N1CCc2ccc(-n3c(=O)ccc4cnc5ccc(-c6cnn(C)c6)cc5c43)cc21	HCK	enzyme activity, inhibitor				> 10 µM
CC(C)(C)C(=O)OCOP(=O)(CCc1cccc(Cn2c[n+](Cc3cc4cc(Cl)ccc4o3)c3c(=O)[nH]c(N)nc32)c1)OCOC(=O)C(C)(C)C	Eukaryotic translation initiation factor 4E (EIF4E, Homo sapiens, UniProt P06730)		human cells	6 h treatment, read at 24 h		22 µM
Cc1ccc2nc(-c3ccc(N=NNc4ccc(-c5nc6ccc(C)c(S(=O)(=O)O)c6s5)cc4)cc3)sc2c1S(=O)(=O)O	Genome polyprotein NS3 helicase domain	helicase activity, molecular beacon helicase		together with: RNA substrate		30 ± 3.6 µM
NC(=O)[C@@H]1CCCNC(=O)[C@H](Cc2ccc(Cl)cc2)NC(=O)[C@H](Cc2ccccc2)NC(=O)[C@H](CC2CCCCC2)NC(=O)/C=C/C(=O)N1	SRC SH3-SH2-kinase domain	enzyme activity, inhibitor, Z'-LYTE FRET		Src residues 83-533, together with: 50 µM ATP		0.047 ± 0.007 µM
Nc1nc(-c2ccc(Cl)cc2)cs1	Capsid scaffolding protein, protease domain (Human herpesvirus 8 type P, UniProt Q2HRB6)	protease activity, inhibitor		together with: fluorogenic peptide substrate		51.2 µM and 51 µM
CC(C)NCc1ccc(C[C@@H]2NC(=O)[C@@H](Cc3c[nH]c4ccccc34)NC(=O)[C@H](Cc3ccccc3)NC(=O)[C@H](NC(=O)[C@@H](N)Cc3ccc(Cl)cc3)CSSC[C@@H](C(=O)N[C@@H](Cc3ccc4ccccc4c3)C(N)=O)NC(=O)[C@H](Cc3ccc(O)c(I)c3)NC2=O)cc1	Somatostatin receptor type 1 (SSTR1, Homo sapiens, UniProt P30872)	ligand displacement, radioligand		cell membranes		> 1 µM
CN(C)C/C=C/C(=O)Nc1ccc2nc(NCCCCCN(C)C)nc(NCCCCCCN(C)C)c2c1	CHD1, chromodomains (Homo sapiens, UniProt O14646)					43 µM
COCCNC(=O)Cn1nc(C(F)(F)F)c2c1CCCC2	Trypanothione synthetase (Trypanosoma brucei, UniProt Q586P2)	enzyme activity, inhibitor				30 µM
CC(C)CCn1c(OC2CCN(C(=O)C3CC3)CC2)nc2c1c(=O)n(C)c(=O)n2C	ALDH1B1					> 57 µM
Cn1c(=O)n(CCCO)c(=O)c2c1nc(Oc1cccc(OC(F)(F)F)c1)n2Cc1ccc(C2(C(F)(F)F)N=N2)cc1	TRPC4/TRPC1 (TRPC1/TRPC4, Homo sapiens, UniProt P48995+Q9UBN4)	calcium influx, inhibitor, Fura-2	HEK T-REx expressing TRPC1/TRPC4	together with: englerin A 30 nM		0.0013 µM
CC[C@H](C)[C@H](NC(=O)[C@H](CC(N)=O)NC(=O)[C@@H](NC(=O)[C@H](Cc1ccccc1)NC(=O)[C@H](Cc1ccc(O)cc1)NC(=O)[C@@H](N)CCSC)[C@@H](C)CC)C(=O)N[C@@H](CC(C)C)C(=O)N[C@H](C(=O)N[C@@H](CC(C)C)C(=O)O)[C@@H](C)O	N-formyl peptide receptor 2, deglycosylated (FPR2, Homo sapiens, UniProt P25090)	binding	HEK293 glycosidase F treated	together with: [3H]LXA4		~0.01 µM
CC1CC(=O)c2c(OCC(=O)N3CCC(C(=O)Nc4ccccc4)CC3)ccc(Cl)c21 (centres unmarked)	Trypanothione synthetase (Trypanosoma brucei brucei, UniProt Q586P2)	enzyme activity, BIOMOL Green phosphate release		1 h preincubation		18.4 ± 2.5 µM
COc1ccc(C(=O)/C=C/c2ccc(O)cc2)c(O)c1CC=C(C)C	Dopamine beta-hydroxylase (Homo sapiens, UniProt P09172)	enzyme activity, inhibitor		together with: tyramine		12 µM
O=C(NCc1ccc([C@@H]2O[C@H](COP(=O)(O)O)[C@@H](O)[C@H]2O)cc1)Nc1ccc(S(=O)(=O)N2CC3CCC(C2)O3)cc1	Nicotinamide phosphoribosyltransferase (Nampt, Mus musculus, UniProt Q99KQ4)	enzyme activity, inhibitor, fluorescence				4.32 µM
COc1cccc(Cc2cc(CCC(=O)NC3=C(C)C4=C(C)c5c(C)cc(C)n5[B-](F)(F)[N+]4=C3C)nn(CC(=O)Nc3ccc(Br)cc3)c2=O)c1	N-formyl peptide receptor 2 (FPR2, Homo sapiens, UniProt P25090)	calcium mobilization, antagonist	HL-60 transfected with target	together with: WKYMVM 5 nM		1.6 ± 1.4 µM
O=C1Nc2ccc(-c3ccc(-c4ccc(O)cc4)cc3)cc2/C1=C/c1ccc(N2CCNCC2)cc1	Fibroblast growth factor receptor 3 (FGFR3, Homo sapiens, UniProt P22607)	enzyme activity, inhibitor				0.00677 µM
CCNC(=O)[C@@H]1CCNC(=O)[C@H](CCCNC(=O)c2cnccn2)NC(=O)[C@H](Cc2ccccc2)NC(=O)[C@H](CC2CCCCC2)NC(=O)/C=C\C(=O)N1	SRC SH3-SH2-kinase domain	enzyme activity, inhibitor, Z'-LYTE FRET		Src residues 83-533, together with: 50 µM ATP		≤ 0.004 µM

Compound	target	assay	test system	setting	scale	IC50
CC(=O)Oc1ccc(OC(C)=O)c2cc3c(cc12)CCCC3(C)C	DNA topoisomerase IB (Leishmania donovani, UniProt A0A3Q8IHS4+Q8WQM6)	DNA relaxation activity, inhibitor		together with: supercoiled plasmid DNA		> 100 µM
Cc1cccc(Cn2c(CN3CCN(C(=O)C4CC4)CC3)nc3c2c(=O)n(C)c(=O)n3C)c1	ALDH1B1					> 57 µM
CCOc1cc(Cn2cnc3c(N)nc(Cl)nc32)cc(OC(C)C)c1	High affinity cAMP-specific and IBMX-insensitive 3',5'-cyclic phosphodiesterase 8A (PDE8A, Homo sapiens, UniProt O60658)	enzyme activity, inhibitor, radiometric				0.058 µM
C=CCn1c(NN)nc2cc3ccccc3cc2c1=O	Genome polyprotein, protease (Hepatitis C virus genotype 1b, UniProt O92972)	enzyme activity, inhibitor, FRET				16 µM
COC(=O)N1c2ccc3c(nc(Cc4ccccc4)n3[C@@H]3CCC[C@@H](C(=O)O)C3)c2CC[C@@H]1C	Bromodomain-containing protein 9 (BRD9, Homo sapiens, UniProt Q9H8M2)	binding, inhibitor, TR-FRET				26.7 µM
Cc1ccc2oc(-c3c4c(N)n[nH]c(=O)c4nn3-c3ccc(NC(=O)/C=C/CN(C)C)cc3)c(C)c2c1	Cyclin-dependent kinase 6 (CDK6, Homo sapiens, UniProt Q00534)	enzyme activity, inhibitor				> 1 µM
CC(C)(C)S(=O)(=O)Cc1nc(-c2ccc(F)c(F)c2)cs1	Trypanothione synthetase (Trypanosoma brucei, UniProt Q586P2)	enzyme activity, inhibitor				0.4 µM
COc1ccc2c(c1)C(=C1Nc3ccccc3C1=NOCC(O)CO)C(=O)N2 (centres unmarked)	HCK	enzyme activity, inhibitor, radiometric				0.264 µM
O=C(Nc1ccc(C(=O)Nc2ccc(C(=O)Nc3ccc(S(=O)(=O)O)c4cc(S(=O)(=O)O)cc(S(=O)(=O)O)c34)cc2)cc1)Nc1ccc(C(=O)Nc2ccc(C(=O)Nc3ccc(S(=O)(=O)O)c4cc(S(=O)(=O)O)cc(S(=O)(=O)O)c34)cc2)cc1	Coagulation factor X (F10, Homo sapiens, UniProt P00742)	enzyme activity, inhibitor, absorbance		pH 7.4		~49 µM and 48.6 µM
CC(C)(C)NCCCNC(=O)c1ccnc(C(F)(F)F)c1	PHD finger protein 1 (Homo sapiens, UniProt O43189)	methyl-lysine reader binding, inhibitor, AlphaScreen				> 100 µM
CCCCCCCCCCCCCCCC(=O)NC[C@H](NC(=O)CNC(=O)CCNc1ccc([N+](=O)[O-])c2nonc12)C(=O)N[C@H](C(=O)N[C@@H](CCCCN)C(=O)N[C@H](C(=O)N[C@@H](CCCCN)C(=O)N[C@@H](CCCCN)C(N)=O)[C@@H](C)CC)C(C)C	Palmitoyl-protein thioesterase 1	enzyme activity, inhibitor	lymphoblast or fibroblast lysate	pH 4.7, together with: MUGS-palmitate		8 µM
Cc1ccc2nc(-c3ccc4nc(-c5ccc(N)cc5)sc4c3)sc2c1S(=O)(=O)O	Genome polyprotein NS3 helicase domain	helicase activity, inhibitor, MBHA				49 ± 45 µM
COC(=O)N1CCC(CN2CCC(CNC(=O)c3cccc4[nH]c(C(C)C)nc34)CC2)CC1	Organic anion transporter 3 (SLC22A8, Homo sapiens, UniProt Q8TCC7)	transporter uptake, inhibitor				> 10 µM
Cc1nn(-c2ccccc2)nc1CNS(=O)(=O)c1cccs1	Trypanothione synthetase (Trypanosoma brucei, UniProt Q586P2)	enzyme activity, inhibitor				8.5 µM
C[C@@H](O)[C@H](NC(=O)NS(=O)(=O)OC[C@H]1O[C@@H](n2cnc3c(N)ncnc32)[C@H](O)[C@@H]1O)C(=O)O	tsaD, with TsaB and TsaE (Escherichia coli, UniProt P05852)	inhibitor		together with: TC-AMP 10 µM, ATP 1 mM		123 µM
Cc1cc([N+](=O)[O-])cn(CC(=O)c2cc3cc(Br)ccc3[nH]2)c1=O	DNA repair protein RAD52 homolog (RAD52, Homo sapiens, UniProt P43351)	DNA binding, inhibitor, FRET		25 °C, together with: Cy3-dT30-Cy5 1 nM		2.02 ± 0.12 µM
O=C(O)c1cc2cc(O)ccc2n1Cc1ccc(Cl)c(C(F)(F)F)c1	Hepatic sodium/bile acid cotransporter (SLC10A1, Homo sapiens, UniProt Q14973)	transporter uptake, inhibitor				19.5 µM
COc1ccc(-n2c(=O)c(C(=O)C3C(=O)CCCC3=O)nc3c(Cl)cccc32)cc1	4-hydroxyphenylpyruvate dioxygenase (Oryza sativa, UniProt Q6H4V1)	enzyme activity, inhibitor				0.0272 ± 0.0015 µM
COC(=O)[C@H](CC(C)C)NC(=O)[C@@H]1CCCN1C(=O)[C@@H](NC(=O)[C@H](CCC(=O)C=[N+]=[N-])NC(=O)OCc1ccccc1)C(C)C	Protein-glutamine gamma-glutamyltransferase E, isoform 3 (Homo sapiens, UniProt Q08188)	inhibitor			reference: TG2	increased
O=C(Nc1cccnc1)c1ccccc1OCc1ccccc1	Phosphatidylcholine:ceramide cholinephosphotransferase 1 (Homo sapiens, UniProt Q86VZ5)	enzyme activity, inhibitor				191 µM
Cc1cn(-c2cc(NC(=O)c3ccc(C)c(Nc4nccc(-c5cccnc5)n4)c3)cc(C(F)(F)F)c2)cn1	Proto-oncogene tyrosine-protein kinase Src, SH2 (SRC, Gallus gallus, UniProt P00523, G530I/P529E/Q528E)	cell-free assay, inhibitor				> 10 µM
CN1C(=O)[C@H](Cc2ccc(F)cc2)NC(=O)[C@H](CC2CCCCC2)NC(=O)/C=C\C(=O)N[C@H](C(=O)O)CCNC(=O)[C@@H]1CCCNC(=O)c1cnccn1	SRC SH3-SH2-kinase domain	enzyme activity, inhibitor, Z'-LYTE FRET		Src residues 83-533, together with: 50 µM ATP		3 ± 0.51 µM
CC(C)(O)Cn1cc(-c2ccc3nc(OC(F)F)ccc3c2)c2c(N)ncnc21	Calmodulin-domain protein kinase 1, putative (Cryptosporidium parvum, UniProt A3FQ16)	enzyme activity, inhibitor				0.0009 µM

For quick reference, copied from above:
Compound	target	assay	test system	setting	scale	IC50
CN1CCN(C2=Nc3ccccc3Nc3ccccc32)CC1	Palmitoyl-protein thioesterase 1	enzyme activity, inhibitor				> 100 µM
CC(C)NCc1ccc(C[C@@H]2NC(=O)[C@@H](Cc3c[nH]c4ccccc34)NC(=O)[C@H](Cc3ccccc3)NC(=O)[C@H](NC(=O)[C@@H](N)Cc3ccc(Cl)cc3)CSSC[C@@H](C(=O)N[C@@H](Cc3ccc4ccccc4c3)C(N)=O)NC(=O)[C@H](Cc3ccc(O)c(I)c3)NC2=O)cc1	Somatostatin receptor type 1 (SSTR1, Homo sapiens, UniProt P30872)	ligand displacement, radioligand		cell membranes		> 1 µM
CC(C)(C)S(=O)(=O)Cc1nc(-c2ccc(F)c(F)c2)cs1	Trypanothione synthetase (Trypanosoma brucei, UniProt Q586P2)	enzyme activity, inhibitor				0.4 µM
CC(=O)Oc1ccc(OC(C)=O)c2cc3c(cc12)CCCC3(C)C	DNA topoisomerase IB (Leishmania donovani, UniProt A0A3Q8IHS4+Q8WQM6)	DNA relaxation activity, inhibitor		together with: supercoiled plasmid DNA		> 100 µM
